Published values gathered from unrelated publications.
Compare with care: the assays were run in different laboratories. Numbers after ± are the reported error.
4'-phosphopantetheinyl transferase PptT: 4'-phosphopantetheinyl transferase PptT (Mycobacterium tuberculosis, UniProt O33336)
Sequence of UniProt O33336 (whole entry, looked up): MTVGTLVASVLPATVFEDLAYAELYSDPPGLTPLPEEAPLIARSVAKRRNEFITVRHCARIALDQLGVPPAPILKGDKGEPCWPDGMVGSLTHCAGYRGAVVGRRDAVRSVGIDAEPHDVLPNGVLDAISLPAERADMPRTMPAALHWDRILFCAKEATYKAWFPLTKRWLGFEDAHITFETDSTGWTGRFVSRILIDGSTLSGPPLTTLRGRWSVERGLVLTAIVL
SCRIB PDZ3 domain: Protein scribble homolog, PDZ3 domain (SCRIB, Homo sapiens, UniProt Q14160)
Sequence of UniProt Q14160 (whole entry, looked up): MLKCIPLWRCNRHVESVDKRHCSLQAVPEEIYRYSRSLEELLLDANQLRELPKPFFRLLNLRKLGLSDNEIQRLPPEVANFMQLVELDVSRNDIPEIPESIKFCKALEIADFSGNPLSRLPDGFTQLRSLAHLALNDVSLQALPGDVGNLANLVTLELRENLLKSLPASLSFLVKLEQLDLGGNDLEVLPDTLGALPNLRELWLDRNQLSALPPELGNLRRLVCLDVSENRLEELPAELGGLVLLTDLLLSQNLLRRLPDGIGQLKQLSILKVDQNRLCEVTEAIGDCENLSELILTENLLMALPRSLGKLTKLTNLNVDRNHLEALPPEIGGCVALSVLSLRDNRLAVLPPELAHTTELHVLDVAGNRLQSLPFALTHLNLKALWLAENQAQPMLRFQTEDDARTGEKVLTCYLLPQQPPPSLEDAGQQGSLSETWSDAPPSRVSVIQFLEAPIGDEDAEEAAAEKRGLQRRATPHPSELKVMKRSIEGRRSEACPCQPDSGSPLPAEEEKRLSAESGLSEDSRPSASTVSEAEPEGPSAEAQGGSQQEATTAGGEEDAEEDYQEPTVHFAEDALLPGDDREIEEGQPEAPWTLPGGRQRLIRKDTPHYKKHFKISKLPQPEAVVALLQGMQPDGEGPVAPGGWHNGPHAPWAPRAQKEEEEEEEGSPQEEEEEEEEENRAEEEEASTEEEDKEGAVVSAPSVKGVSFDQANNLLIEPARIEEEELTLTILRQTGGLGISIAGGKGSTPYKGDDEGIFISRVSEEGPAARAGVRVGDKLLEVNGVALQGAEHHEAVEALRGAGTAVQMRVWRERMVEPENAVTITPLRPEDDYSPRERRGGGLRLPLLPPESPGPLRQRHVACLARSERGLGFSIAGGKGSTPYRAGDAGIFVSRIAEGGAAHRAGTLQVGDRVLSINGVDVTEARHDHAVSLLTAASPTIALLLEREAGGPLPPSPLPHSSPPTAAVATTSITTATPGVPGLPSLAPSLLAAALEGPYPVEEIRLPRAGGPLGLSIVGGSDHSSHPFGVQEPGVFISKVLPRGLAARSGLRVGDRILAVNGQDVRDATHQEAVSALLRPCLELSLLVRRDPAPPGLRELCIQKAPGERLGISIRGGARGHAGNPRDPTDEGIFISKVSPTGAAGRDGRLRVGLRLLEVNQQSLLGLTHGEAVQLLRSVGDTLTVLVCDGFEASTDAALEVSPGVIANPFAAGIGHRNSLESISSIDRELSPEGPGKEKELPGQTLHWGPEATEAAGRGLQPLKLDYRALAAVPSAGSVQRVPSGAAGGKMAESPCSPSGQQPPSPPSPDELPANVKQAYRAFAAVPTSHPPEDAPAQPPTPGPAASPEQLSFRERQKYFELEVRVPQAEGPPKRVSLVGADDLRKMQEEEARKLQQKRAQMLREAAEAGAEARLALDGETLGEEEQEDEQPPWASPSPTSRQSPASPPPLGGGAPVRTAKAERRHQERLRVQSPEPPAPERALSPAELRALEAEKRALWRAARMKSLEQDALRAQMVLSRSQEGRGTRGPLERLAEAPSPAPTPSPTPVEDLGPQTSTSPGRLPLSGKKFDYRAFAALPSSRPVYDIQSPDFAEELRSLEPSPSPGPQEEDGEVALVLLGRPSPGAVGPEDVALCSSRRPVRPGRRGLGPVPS
Sequence of UniProt P20782 (whole entry, unmodified, looked up): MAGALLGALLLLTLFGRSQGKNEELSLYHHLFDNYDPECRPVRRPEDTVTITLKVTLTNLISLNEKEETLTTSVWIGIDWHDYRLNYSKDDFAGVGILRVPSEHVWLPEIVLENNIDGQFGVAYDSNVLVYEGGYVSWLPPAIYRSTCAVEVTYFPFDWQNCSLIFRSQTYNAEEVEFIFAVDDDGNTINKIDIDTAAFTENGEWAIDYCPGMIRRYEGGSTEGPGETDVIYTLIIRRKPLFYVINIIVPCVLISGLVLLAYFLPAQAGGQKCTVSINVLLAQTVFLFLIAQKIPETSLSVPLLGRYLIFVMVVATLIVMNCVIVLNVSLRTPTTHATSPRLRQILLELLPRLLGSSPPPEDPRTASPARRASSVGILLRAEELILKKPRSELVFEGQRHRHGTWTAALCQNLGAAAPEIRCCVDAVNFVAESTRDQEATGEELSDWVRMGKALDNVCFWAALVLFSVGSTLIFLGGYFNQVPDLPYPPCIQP
Sequence of UniProt P78314 (whole entry, looked up): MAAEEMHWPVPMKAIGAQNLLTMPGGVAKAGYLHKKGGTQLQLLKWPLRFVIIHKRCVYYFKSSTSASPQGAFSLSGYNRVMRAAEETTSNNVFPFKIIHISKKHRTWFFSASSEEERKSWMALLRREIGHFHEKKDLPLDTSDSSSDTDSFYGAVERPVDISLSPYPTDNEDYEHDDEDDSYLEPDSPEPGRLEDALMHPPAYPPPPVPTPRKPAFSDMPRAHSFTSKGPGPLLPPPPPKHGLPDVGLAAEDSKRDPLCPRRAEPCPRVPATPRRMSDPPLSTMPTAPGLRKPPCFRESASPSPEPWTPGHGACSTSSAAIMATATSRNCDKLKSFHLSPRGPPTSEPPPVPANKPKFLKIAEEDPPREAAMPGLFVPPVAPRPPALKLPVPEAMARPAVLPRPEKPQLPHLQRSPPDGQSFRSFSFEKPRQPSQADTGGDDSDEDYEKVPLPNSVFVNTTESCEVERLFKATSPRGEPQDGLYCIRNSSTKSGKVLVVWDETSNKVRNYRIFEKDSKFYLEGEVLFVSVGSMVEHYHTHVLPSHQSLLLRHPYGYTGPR
Sequence of UniProt P11473 (whole entry, looked up): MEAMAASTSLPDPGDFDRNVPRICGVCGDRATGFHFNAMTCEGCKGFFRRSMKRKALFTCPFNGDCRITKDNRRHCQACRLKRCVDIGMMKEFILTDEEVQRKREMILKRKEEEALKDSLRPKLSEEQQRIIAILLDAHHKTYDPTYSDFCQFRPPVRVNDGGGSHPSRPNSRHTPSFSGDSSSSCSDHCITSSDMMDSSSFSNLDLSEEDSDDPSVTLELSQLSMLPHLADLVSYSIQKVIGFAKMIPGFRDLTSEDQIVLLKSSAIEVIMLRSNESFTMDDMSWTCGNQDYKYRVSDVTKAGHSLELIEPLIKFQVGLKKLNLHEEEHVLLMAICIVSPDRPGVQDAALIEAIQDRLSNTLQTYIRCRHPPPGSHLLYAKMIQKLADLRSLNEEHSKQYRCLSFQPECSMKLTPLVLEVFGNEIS
Sequence of UniProt Q96DB2 (whole entry, looked up): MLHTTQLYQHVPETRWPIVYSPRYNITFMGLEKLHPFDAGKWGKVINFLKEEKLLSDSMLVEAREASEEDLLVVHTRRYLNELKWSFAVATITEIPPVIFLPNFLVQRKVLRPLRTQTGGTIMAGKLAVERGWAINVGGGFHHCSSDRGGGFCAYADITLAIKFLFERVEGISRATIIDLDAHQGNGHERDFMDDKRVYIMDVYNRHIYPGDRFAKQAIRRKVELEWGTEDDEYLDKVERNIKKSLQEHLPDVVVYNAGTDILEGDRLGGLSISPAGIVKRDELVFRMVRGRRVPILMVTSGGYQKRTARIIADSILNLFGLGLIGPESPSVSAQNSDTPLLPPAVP
Sequence of UniProt P13798 (whole entry, looked up): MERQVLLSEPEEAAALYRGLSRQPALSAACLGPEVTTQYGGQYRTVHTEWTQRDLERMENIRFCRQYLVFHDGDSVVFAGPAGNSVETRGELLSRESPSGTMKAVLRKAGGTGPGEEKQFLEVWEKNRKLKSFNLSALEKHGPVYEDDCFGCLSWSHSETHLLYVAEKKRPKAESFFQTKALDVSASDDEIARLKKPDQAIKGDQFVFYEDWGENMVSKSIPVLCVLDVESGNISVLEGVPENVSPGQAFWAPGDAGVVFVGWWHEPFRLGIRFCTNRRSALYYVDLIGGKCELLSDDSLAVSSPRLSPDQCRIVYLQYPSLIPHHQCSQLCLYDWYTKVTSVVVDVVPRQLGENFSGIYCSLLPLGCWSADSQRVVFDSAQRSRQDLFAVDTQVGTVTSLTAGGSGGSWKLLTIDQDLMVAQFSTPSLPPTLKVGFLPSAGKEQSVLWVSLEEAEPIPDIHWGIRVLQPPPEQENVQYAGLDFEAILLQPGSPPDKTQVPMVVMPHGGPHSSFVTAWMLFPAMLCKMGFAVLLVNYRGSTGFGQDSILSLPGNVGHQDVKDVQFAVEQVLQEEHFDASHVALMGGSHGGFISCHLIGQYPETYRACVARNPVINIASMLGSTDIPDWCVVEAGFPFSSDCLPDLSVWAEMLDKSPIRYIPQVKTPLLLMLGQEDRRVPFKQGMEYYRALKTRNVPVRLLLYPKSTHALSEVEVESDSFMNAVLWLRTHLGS
Sequence of UniProt P04756 (whole entry, unmodified, looked up): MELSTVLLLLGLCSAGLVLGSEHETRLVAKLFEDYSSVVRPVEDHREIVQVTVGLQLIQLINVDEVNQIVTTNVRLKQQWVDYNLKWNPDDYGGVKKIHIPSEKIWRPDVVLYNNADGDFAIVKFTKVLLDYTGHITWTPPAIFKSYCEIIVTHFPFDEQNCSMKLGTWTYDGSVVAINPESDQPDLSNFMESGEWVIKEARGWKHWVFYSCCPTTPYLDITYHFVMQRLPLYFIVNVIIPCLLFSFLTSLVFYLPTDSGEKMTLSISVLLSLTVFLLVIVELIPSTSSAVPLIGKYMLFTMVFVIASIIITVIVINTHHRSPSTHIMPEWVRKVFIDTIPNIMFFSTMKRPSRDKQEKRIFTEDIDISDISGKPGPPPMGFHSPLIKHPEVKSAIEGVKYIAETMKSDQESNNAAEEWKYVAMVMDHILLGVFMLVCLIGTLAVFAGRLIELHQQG

Compound | target or system | test | system | setting | scale | measurement | value
CCCCCCNC(=N)NC(=O)Nc1c(CC)cccc1CC | 4'-phosphopantetheinyl transferase PptT | inhibitor | – | – | – | IC50 | > 100 µM
C[N+](C)(C)C | Chrnd/Chrna1/Chrne (Mus musculus, UniProt P02716+P04756+P20782, G173K/S470W) | single-channel kinetics | – | K chain side site | – | Kd | 17.2 µM
CCNC(=NC(=O)OC(C)(C)C)NC(=O)Nc1c(CC)cc(C(=O)NCc2ccc(OC)cc2)cc1CC | 4'-phosphopantetheinyl transferase PptT | inhibitor | – | – | – | IC50 | > 100 µM
CC(C)C[C@H](NC(=O)[C@H](CO)NC(=O)[C@@H](NC(=O)[C@H](CCC(=O)O)NC(=O)[C@H](CCC(=O)O)NC(=O)[C@H](CS)NC(=O)[C@@H](NC(=O)[C@H](CCCNC(=N)N)NC(=O)[C@@H](NC(=O)[C@@H]1CCCN1)C(C)C)C(C)C)[C@@H](C)O)C(=O)O | SCRIB PDZ3 domain | binding, fluorescence polarization | solution | Scribble PDZ3 domain | – | Kd | 3.4 µM
CCc1cccc(CC)c1NC(=O)NC(=N)NCCSC | 4'-phosphopantetheinyl transferase PptT | inhibitor | – | – | – | IC50 | > 100 µM
O=C(c1ccc(Cl)cc1)N1CCN2C(=O)N(OC(=O)N3CCOc4ccccc43)C(=O)C2C1 (stereo not shown) | APEH (Homo sapiens, UniProt P13798) | MS-based ABPP | SW-620 conditioned medium | 10 µM, 1 h, 37 °C | baseline: compound over DMSO, lower = more inhibition | median protein ratio | 1.13
CCCNCCc1c[nH]c2cccc(O)c12.CCCNCCc1c[nH]c2cccc(O)c12.O=C(O)/C=C/C(=O)O | – | – | C57BL/6J mice | subcutaneous, 3 mg/kg | – | head twitch count | 32 ± 3.3
CCNC(=N)NC(=O)Nc1cccs1 | 4'-phosphopantetheinyl transferase PptT | inhibitor | – | – | – | IC50 | > 100 µM
CC[C@H](C)[C@H](NC(=O)[C@H](C)NC(=O)[C@H](CCCCN)NC(=O)[C@H](CC(C)C)NC(=O)[C@H](C)NC(=O)[C@@H](NC(=O)[C@H](Cc1c[nH]cn1)NC(=O)[C@H](CC(C)C)NC(=O)[C@@H](NC(=O)[C@@H](NC(=O)[C@H](CCCCN)NC(=O)[C@H](C)NC(=O)[C@H](C)NC(=O)[C@H](CO)NC(=O)[C@H](CCCCN)NC(=O)[C@H](Cc1ccccc1)NC(=O)[C@@H](NC(=O)[C@H](CCCCN)NC(=O)[C@H](CC(C)C)NC(=O)[C@H](Cc1ccccc1)NC(=O)[C@H](CO)NC(=O)[C@H](CCCCN)NC(=O)[C@H](Cc1c[nH]c2ccccc12)NC(=O)[C@H](CCCCN)NC(C)=O)[C@@H](C)O)[C@@H](C)O)C(C)C)[C@@H](C)O)C(=O)N[C@@H](CO)C(=O)N[C@@H](CO)C(N)=O | Enterococcus faecalis | – | – | 40 strains | – | MBC90 | > 64 µg/mL
C[C@H]1CN(c2n[nH]c3nc(N[C@H]4CC[C@H](NS(=O)(=O)CCC(F)(F)F)CC4)ncc23)CCO1 | ATP1A1 (Homo sapiens, UniProt P05023) | inhibitor, Kinobeads competition profiling | – | 0.032 µM | baseline: vehicle | relative abundance | 1.22
CC[C@H](C)[C@H](NC(=O)[C@H](CCCNC(=N)N)NC(=O)[C@@H](NC(=O)[C@H](CO)NC(=O)[C@H](CC(C)C)NC(=O)[C@H](C)NC(=O)[C@@H](N)CO)C(C)C)C(=O)N[C@@H](CO)C(=O)N[C@@H](CC(N)=O)C(=O)N[C@H](C(=O)O)C(C)C | SCRIB PDZ3 domain | binding, fluorescence polarization | solution | Scribble PDZ3 domain | – | Kd | 13.2 µM
CC(C)C[C@@H]1NC(=O)[C@H](CC(C)C)NC(=O)[C@H](Cc2c[nH]c3ccccc23)NC(=O)[C@H](CO)NC(=O)[C@H](Cc2c[nH]c3ccccc23)NC(=O)[C@@H]2CCCN2C(=O)[C@H](CC(C)C)NC(=O)[C@H](Cc2c[nH]cn2)NC(=O)[C@@H]2CCCN2C(=O)[C@H](CC(N)=O)NC(=O)[C@H](C)NC(=O)[C@H](Cc2ccc(O)cc2)NC(=O)[C@H](CS)NC(=O)[C@H](CCCCNC(=O)CN2CCN(CC(=O)O)CCN(CC(=O)O)CCN(CC(=O)O)CC2)NC1=O [lutetium-177 labelled] | – | – | Balb/c mouse, female, 4T1 tumour, lung | intravenous, 3.7 MBq, 24 h | – | tissue uptake | 0.03 %ID
CCc1cccc(CC)c1NC(=O)NC(=N)NCC(C)C | 4'-phosphopantetheinyl transferase PptT | inhibitor | – | – | – | IC50 | > 100 µM
N=C(N)NCCC[C@H](NC(=O)[C@@H](Cc1ccccc1)NC(=O)[C@H](Cc1c[nH]cn1)NC(=O)CCCc1ccccc1)C(=O)N[C@@H](Cc1c[nH]c2ccccc12)C(=O)NCC(=O)N[C@@H](CCCCNC(=O)CCCCCNC(=O)CN1CCN(CC(=O)O)CCN(CC(=O)O)CCN(CC(=O)O)CC1)C(N)=O [actinium-225 labelled] | – | five-compartment model fit | SCID mice, A-375 and A-375/MC1R xenografts | – | – | tumour uptake rate constant (kti) | 0.0031 h⁻¹
CC(C)[C@H](NC(=O)[C@H](CO)NC(=O)[C@@H](NC(=O)[C@@H](NC(=O)[C@@H](NC(=O)[C@H](CCCNC(=N)N)NC(=O)[C@@H](NC(=O)[C@H](CCCCN)NC(=O)[C@H](C)NC(=O)[C@@H](N)CO)C(C)C)[C@@H](C)O)C(C)C)[C@@H](C)O)C(=O)O | SCRIB PDZ3 domain | binding, fluorescence polarization | solution | Scribble PDZ3 domain | – | Kd | 30 µM
COc1cc(Nc2ncc(F)c(Nc3ccc4c(n3)NC(=O)C(C)(C)O4)n2)cc(OC)c1OC | Vitamin D3 receptor (VDR, Homo sapiens, UniProt P11473) | – | – | – | – | IC50 | > 10 µM
Cc1c(OS(=O)(=O)Oc2ccc(Oc3ccccc3)cc2)cccc1C(=O)NO | HDAC11 (Homo sapiens, UniProt Q96DB2) | – | – | – | – | IC50 | 0.269 µM
O=C(O)CNCP(=O)(O)O | EPSP synthase (Zea mays, UniProt A0A1D6NVZ6, K358R/P168S/P188S/T164I) | – | – | – | – | Ki | 871 ± 54 µM
CC(C)C[C@H](NC(=O)[C@H](CC(N)=O)NC(=O)[C@H](CCC(=O)O)NC(=O)CNC(=O)[C@@H]1CCCN1C(=O)[C@H](CCC(N)=O)NC(=O)[C@H](Cc1ccc(O)cc1)NC(=O)[C@H](CCC(N)=O)NC(=O)[C@@H]1CCCN1C(=O)[C@@H](N)CCC(=O)O)C(=O)O | SCRIB PDZ3 domain | binding, fluorescence polarization | solution | Scribble PDZ3 domain | – | Kd | 48.6 µM
C[C@@H](O)[C@@H](CO)NC(=O)[C@@H](CCCNC(=N)N)NC(=O)[C@@H]1CCCN1C(=O)[C@@H]1CSSC[C@H](NC(=O)[C@H](Cc2ccccc2)NC(=O)CN2CCN(CC(=O)O)CCN(CC(=O)O)CCN(CC(=O)O)CC2)C(=O)N[C@@H](Cc2ccc(O)cc2)C(=O)N[C@@H](Cc2ccccc2)C(=O)N[C@@H](CCC(N)=O)C(=O)N[C@@H](CC(N)=O)C(=O)N1 [gallium-68 labelled] | – | – | Wistar rat, heart | intravenous, 8 MBq, 120 min, group mean | – | tissue uptake | 0.03 %ID/g
CSCC[C@H](N)C(=O)N[C@@H](CCC(=O)O)C(=O)N[C@@H](CCCNC(=N)N)C(=O)N[C@@H](CC(C)C)C(=O)N[C@@H](CCCNC(=N)N)C(=O)N[C@H](C(=O)N[C@@H](CCC(=O)O)C(=O)N[C@H](C(=O)N[C@@H](CC(=O)O)C(=O)N[C@H](C(=O)O)C(C)C)[C@@H](C)O)C(C)C | SCRIB PDZ3 domain | binding, fluorescence polarization | solution | Scribble PDZ3 domain | – | Kd | 2.1 µM
CSCC[C@H](NC(=O)CNC(=O)[C@H](Cc1ccccc1)NC(=O)[C@H](CC(=O)O)NC(=O)CNC(=O)c1ccc2c(c1)C(=O)OC21c2ccc(N(C)C)cc2Oc2cc(N(C)C)ccc21)C(=O)N[C@@H](CO)C(=O)N[C@@H](CCCNC(=N)N)C(=O)N[C@@H](CC(=O)O)C(=O)N[C@H](C(=O)N[C@@H](Cc1ccc(OP(=O)(O)O)cc1)C(=O)N[C@@H](CO)C(=O)N[C@H](C(=O)N[C@@H](CC(=O)O)C(=O)N[C@@H](Cc1ccc(O)cc1)C(=O)N[C@@H](Cc1ccc(O)cc1)C(=O)N[C@@H](CCCNC(=N)N)C(=O)N[C@H](C(=O)N[C@@H](CC(=O)O)C(=O)O)C(C)C)[C@@H](C)O)C(C)C | SH3 domain-binding protein 2, SH2 domain (SH3BP2, Homo sapiens, UniProt P78314) | binding | – | – | – | Kd | 0.561 µM
